Assay results of several laboratories.
Values joined by “and” are separate records of one study, mostly repeats; a detail may differ. ± marks the error that the study gave.
UniProt O14965, sequence (whole entry, looked up): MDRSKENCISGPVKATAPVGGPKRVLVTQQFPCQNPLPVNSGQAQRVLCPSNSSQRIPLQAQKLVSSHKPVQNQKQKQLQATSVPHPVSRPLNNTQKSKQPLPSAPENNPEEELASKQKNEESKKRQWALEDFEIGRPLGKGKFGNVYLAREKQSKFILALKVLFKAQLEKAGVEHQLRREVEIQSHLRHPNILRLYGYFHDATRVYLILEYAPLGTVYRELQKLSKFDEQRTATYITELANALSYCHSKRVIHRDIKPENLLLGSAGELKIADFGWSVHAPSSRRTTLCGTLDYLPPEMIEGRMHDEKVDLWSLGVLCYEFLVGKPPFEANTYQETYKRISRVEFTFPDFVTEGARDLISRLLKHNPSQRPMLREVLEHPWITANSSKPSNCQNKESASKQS

SMILES | target or system | assay | test system | conditions | how to read | measurement | result
COc1ccc(Nc2ncnc3ccc(-c4ccc(S(=O)(=O)N5CCN(C)CC5)cc4)cc23)cc1Cl | Plasmodium falciparum | parasite growth, SYBR Green fluorescence | C235 (TM91C235), drug-resistant | – | – | EC50 | 58 nM
O=C(O)c1ccc(-c2nc(-c3ccccc3Cl)c3sccn23)cc1 | HEL | flow cytometry, measured: surface CD235a | – | 0.01 mM | higher = more expression | mean fluorescence intensity | 21100 a.u.
CC(C)CC(C(=O)N1CC2(CC1C#N)C(=O)Nc1ccccc12)N(C)C(=O)c1cc2c(F)cc(F)c(F)c2[nH]1 (stereo not drawn) | Human coronavirus 229E | cytopathic effect | MRC5 | 13.54 nM | – | inhibition | 100%
COc1ccccc1-c1n[nH]c2nc(N[C@H]3CC[C@H](NS(=O)(=O)CC(C)C)CC3)ncc12 | – | bead binding, competition bead pull-down, measured: LINJ.05.0500 | Leishmania donovani extract | 10 µM | reference: vehicle | relative abundance | 1.08
C[C@H](NCc1ccc(-c2ccc(C(F)(F)F)cc2)cc1)C(N)=O | – | passive avoidance, acquisition | APP/PS1 mice | oral, 1 mg/kg, 336 h, 2 weeks dosing | – | step-through latency | 29.9 ± 4.77 s
C=CCN1C(=O)C(CC=C)(C(=O)OCC)Oc2cc(F)ccc21 (stereo not drawn) | L02 | cell growth or viability, CCK-8 | – | 50 µM, 72 h | – | inhibition | 0.53%
CS(C)(=O)=Nc1ccc(-c2ccc(-c3nc4cc(O[C@@H]5CO[C@H]6[C@@H]5OC[C@H]6O)[nH]c4cc3F)cc2)cc1 | Aurora kinase A (AURKA, Homo sapiens, UniProt O14965) | enzyme activity, inhibitor | – | 10 µM | – | inhibition | 20%
C#CCN1C(=O)C(CC#C)(C(=O)OCC)Oc2ccccc21 (stereo not drawn) | HaCaT | cell growth or viability, CCK-8 | – | 12.5 µM, 72 h | – | inhibition | 0.65%
NNC(=O)c1ccccc1 | – | hydrazine ligation kinetics, absorbance | – | concentration not given, 20 s, together with: 2-formylphenylboronic acid | – | normalised absorbance | 0.596
Cc1ccc(N2CC3CC(C2)N3C)cc1C(=O)NC1(c2ccc3c4c(cccc24)C(=O)N3C)CC1 | human coronavirus 229E | viral replication | Huh-7 | 0.01172 µM | – | inhibition | 0%
CN1CCN(c2cccc(-c3ccc4ncnc(Nc5ccc(OCc6cccc(F)c6)c(Cl)c5)c4c3)c2)CC1 | Plasmodium falciparum | parasite growth, SYBR Green fluorescence | W2, drug-resistant | – | – | EC50 | 59 nM
Cc1cc(C(=O)Nc2nc3cccc(C)c3n2[C@H]2CCCCN(C(=O)/C=C/CN(C)C)C2)ccn1 | Trypanosoma brucei | cell growth, Alamar Blue | 2T1 overexpressing Tb927.7.3210 | – | reference: parental 2T1 | EC50 fold shift | 1.36 fold and 0.58 fold
Cc1ccc(NS(=O)(=O)c2c(C(=O)N3CCCCCC3)c(C)n(C)c2C)c(Cl)c1 | Fowlpox virus | viral infection | CEF | 3.704 µM | reference: untreated | infection | 107% and 76.9% and 96.2%
CC(C)C[C@@H]1NC(=O)[C@@H](Cc2c[nH]c3ccccc23)NC(=O)[C@H](CCCNC(=N)N)NC(=O)[C@@H](CCC(=O)O)NC(=O)[C@H](CCC(N)=O)NC(=O)[C@@H](CCC(=O)O)NC(=O)[C@H](CCCNC(=N)N)NC(=O)[C@@H](Cc2c[nH]c3ccccc23)NC1=O | – | Luminex, measured: IL1b | LDLr-/- mice, Western diet, liver | dose not given, 4 weeks | – | cytokine level | 430 ± 100 pg/g tissue
O=S(=O)(c1ccc(-c2ccc3ncnc(Nc4ccc(OCc5cccc(F)c5)c(Cl)c4)c3c2)cc1)N1CCSCC1 | Plasmodium falciparum | parasite growth, SYBR Green fluorescence | C235 (TM91C235), drug-resistant | – | – | EC50 | 760 nM
O=C1NC2(CC2)COc2ncc(F)cc2[C@H]2COCCN2c2ccn3ncc1c3n2 | – | – | Sprague-Dawley rat, female, serum | oral, 20 mg/kg/day, 4 weeks daily, end of recovery period | – | pancreatic amylase activity | 1450 ± 213 U/L
CC(C)(C)C(=O)OCOP(=O)(OCOC(=O)C(C)(C)C)C1CCCN(O)C1=O (stereo not drawn) | IGROV-1 | – | – | – | – | TGI | 2730 nM
O=C(c1cncc(-c2ccc3ncnc(Nc4ccc(OCc5cccc(F)c5)c(Cl)c4)c3c2)c1)N1CCOCC1 | Plasmodium falciparum | parasite growth, SYBR Green fluorescence | C235 (TM91C235), drug-resistant | – | – | EC50 | 500 nM
CN1C(=O)C(C2C3=C(CC(C)(C)CC3=O)Oc3ccc([N+](=O)[O-])cc32)C(=O)N(C)C1=O (stereo not drawn) | mouse preadipocytes | qPCR, measured: HSL | – | IC20, 14 days, adipogenic induction | reference: untreated cells | mRNA level | decreased
O=C(c1cccc(-c2ccc3ncnc(Nc4ccc(OCc5cccc(F)c5)c(Cl)c4)c3c2)c1)N1CCCCC1 | Plasmodium falciparum | parasite growth, SYBR Green | D6 | blood stage | – | EC50 | 510 nM
CCOC(=O)C1(Cc2ccccc2)Oc2ccccc2N(Cc2ccccc2)C1=O (stereo not drawn) | Arabidopsis thaliana | root length, petri dish germination | Col-0, 1/2 MS medium | 200 µg/mL, 7 days, 22 °C, dark | – | inhibition | 100%
COc1ccccc1-c1ccncc1C(=O)Nc1nnc(OCc2ccc(Cl)cc2)s1 | RPE-1 TP53-/- BRCA1-/- | – | – | 0.5 µM, average of 2 runs | reference: untreated | colony survival | 46.2%
Cc1cc(Oc2nc(N3CC[C@@H](c4ccncc4)C3)ncc2F)[nH]n1 | Mycobacterium tuberculosis | OD | H37Rv PurF CRISPRi knockdown | 6.1e-05 µM, together with: anhydrotetracycline low | – | normalised growth | 101% and 98% and 104%
CCOC(=O)C1(Cc2ccccc2)Oc2cc(F)ccc2N(Cc2ccccc2)C1=O (stereo not drawn) | L02 | cell growth or viability, CCK-8 | – | 6.25 µM, 72 h | – | inhibition | 0.22%
O=S(=O)(c1ccc(-c2ccc3ncnc(Nc4ccc(O)c(Cl)c4)c3c2)cc1)N1CCOCC1 | Plasmodium falciparum | parasite growth, SYBR Green fluorescence | W2, drug-resistant | – | – | EC50 | 19000 nM
CCOC(=O)C1(Cc2cc(F)c(F)c(F)c2)Oc2cc(F)ccc2N(Cc2cc(F)c(F)c(F)c2)C1=O (stereo not drawn) | Arabidopsis thaliana | stem length, petri dish germination | Col-0, 1/2 MS medium | 50 µg/mL, 7 days, 22 °C, dark | – | inhibition | 48%
COc1ccccc1-c1n[nH]c2nc(NC3CCN(C(=O)Cc4ccc(F)cc4F)CC3)ncc12 | – | bead binding, competition bead pull-down, measured: LINJ.23.0050 | Leishmania donovani axenic amastigote extract | 10 µM | reference: vehicle | relative abundance | 0.95

Excerpt of the above:
SMILES | target or system | assay | test system | conditions | how to read | measurement | result
Cc1ccc(N2CC3CC(C2)N3C)cc1C(=O)NC1(c2ccc3c4c(cccc24)C(=O)N3C)CC1 | human coronavirus 229E | viral replication | Huh-7 | 0.01172 µM | – | inhibition | 0%
CN1CCN(c2cccc(-c3ccc4ncnc(Nc5ccc(OCc6cccc(F)c6)c(Cl)c5)c4c3)c2)CC1 | Plasmodium falciparum | parasite growth, SYBR Green fluorescence | W2, drug-resistant | – | – | EC50 | 59 nM
Cc1cc(C(=O)Nc2nc3cccc(C)c3n2[C@H]2CCCCN(C(=O)/C=C/CN(C)C)C2)ccn1 | Trypanosoma brucei | cell growth, Alamar Blue | 2T1 overexpressing Tb927.7.3210 | – | reference: parental 2T1 | EC50 fold shift | 1.36 fold and 0.58 fold
